{"data": "Published values of several laboratories", "note": "A part holds a random share of what one study measured. Several values in a cell are separate wells, animals, samples, runs or records.", "chain of UniProt Q12866 (whole entry, looked up)": "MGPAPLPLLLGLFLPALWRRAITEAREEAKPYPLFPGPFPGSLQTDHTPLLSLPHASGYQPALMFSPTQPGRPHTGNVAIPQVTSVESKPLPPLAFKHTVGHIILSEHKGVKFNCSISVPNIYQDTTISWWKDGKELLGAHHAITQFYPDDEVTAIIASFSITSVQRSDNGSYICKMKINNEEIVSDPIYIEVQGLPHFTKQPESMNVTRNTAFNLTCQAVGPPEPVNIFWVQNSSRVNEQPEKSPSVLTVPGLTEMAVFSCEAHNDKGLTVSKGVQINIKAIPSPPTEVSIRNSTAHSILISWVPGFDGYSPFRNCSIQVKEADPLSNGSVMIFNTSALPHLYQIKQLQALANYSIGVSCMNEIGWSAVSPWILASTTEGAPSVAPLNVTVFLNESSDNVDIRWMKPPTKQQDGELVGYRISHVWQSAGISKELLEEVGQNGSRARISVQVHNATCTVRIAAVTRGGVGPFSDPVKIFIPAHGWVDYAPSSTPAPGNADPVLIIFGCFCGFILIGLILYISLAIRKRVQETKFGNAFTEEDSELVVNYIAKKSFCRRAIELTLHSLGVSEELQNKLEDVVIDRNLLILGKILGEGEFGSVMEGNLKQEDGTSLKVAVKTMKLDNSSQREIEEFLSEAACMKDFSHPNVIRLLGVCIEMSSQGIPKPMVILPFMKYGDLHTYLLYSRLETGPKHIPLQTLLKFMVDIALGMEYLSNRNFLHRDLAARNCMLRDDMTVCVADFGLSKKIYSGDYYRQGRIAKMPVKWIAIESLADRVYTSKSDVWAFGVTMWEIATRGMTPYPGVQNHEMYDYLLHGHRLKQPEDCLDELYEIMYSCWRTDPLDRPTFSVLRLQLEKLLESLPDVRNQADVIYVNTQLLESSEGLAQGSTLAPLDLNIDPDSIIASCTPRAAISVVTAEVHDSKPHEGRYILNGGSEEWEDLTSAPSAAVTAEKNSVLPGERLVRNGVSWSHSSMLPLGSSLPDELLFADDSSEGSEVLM", "chain of UniProt Q15746 (whole entry, looked up)": "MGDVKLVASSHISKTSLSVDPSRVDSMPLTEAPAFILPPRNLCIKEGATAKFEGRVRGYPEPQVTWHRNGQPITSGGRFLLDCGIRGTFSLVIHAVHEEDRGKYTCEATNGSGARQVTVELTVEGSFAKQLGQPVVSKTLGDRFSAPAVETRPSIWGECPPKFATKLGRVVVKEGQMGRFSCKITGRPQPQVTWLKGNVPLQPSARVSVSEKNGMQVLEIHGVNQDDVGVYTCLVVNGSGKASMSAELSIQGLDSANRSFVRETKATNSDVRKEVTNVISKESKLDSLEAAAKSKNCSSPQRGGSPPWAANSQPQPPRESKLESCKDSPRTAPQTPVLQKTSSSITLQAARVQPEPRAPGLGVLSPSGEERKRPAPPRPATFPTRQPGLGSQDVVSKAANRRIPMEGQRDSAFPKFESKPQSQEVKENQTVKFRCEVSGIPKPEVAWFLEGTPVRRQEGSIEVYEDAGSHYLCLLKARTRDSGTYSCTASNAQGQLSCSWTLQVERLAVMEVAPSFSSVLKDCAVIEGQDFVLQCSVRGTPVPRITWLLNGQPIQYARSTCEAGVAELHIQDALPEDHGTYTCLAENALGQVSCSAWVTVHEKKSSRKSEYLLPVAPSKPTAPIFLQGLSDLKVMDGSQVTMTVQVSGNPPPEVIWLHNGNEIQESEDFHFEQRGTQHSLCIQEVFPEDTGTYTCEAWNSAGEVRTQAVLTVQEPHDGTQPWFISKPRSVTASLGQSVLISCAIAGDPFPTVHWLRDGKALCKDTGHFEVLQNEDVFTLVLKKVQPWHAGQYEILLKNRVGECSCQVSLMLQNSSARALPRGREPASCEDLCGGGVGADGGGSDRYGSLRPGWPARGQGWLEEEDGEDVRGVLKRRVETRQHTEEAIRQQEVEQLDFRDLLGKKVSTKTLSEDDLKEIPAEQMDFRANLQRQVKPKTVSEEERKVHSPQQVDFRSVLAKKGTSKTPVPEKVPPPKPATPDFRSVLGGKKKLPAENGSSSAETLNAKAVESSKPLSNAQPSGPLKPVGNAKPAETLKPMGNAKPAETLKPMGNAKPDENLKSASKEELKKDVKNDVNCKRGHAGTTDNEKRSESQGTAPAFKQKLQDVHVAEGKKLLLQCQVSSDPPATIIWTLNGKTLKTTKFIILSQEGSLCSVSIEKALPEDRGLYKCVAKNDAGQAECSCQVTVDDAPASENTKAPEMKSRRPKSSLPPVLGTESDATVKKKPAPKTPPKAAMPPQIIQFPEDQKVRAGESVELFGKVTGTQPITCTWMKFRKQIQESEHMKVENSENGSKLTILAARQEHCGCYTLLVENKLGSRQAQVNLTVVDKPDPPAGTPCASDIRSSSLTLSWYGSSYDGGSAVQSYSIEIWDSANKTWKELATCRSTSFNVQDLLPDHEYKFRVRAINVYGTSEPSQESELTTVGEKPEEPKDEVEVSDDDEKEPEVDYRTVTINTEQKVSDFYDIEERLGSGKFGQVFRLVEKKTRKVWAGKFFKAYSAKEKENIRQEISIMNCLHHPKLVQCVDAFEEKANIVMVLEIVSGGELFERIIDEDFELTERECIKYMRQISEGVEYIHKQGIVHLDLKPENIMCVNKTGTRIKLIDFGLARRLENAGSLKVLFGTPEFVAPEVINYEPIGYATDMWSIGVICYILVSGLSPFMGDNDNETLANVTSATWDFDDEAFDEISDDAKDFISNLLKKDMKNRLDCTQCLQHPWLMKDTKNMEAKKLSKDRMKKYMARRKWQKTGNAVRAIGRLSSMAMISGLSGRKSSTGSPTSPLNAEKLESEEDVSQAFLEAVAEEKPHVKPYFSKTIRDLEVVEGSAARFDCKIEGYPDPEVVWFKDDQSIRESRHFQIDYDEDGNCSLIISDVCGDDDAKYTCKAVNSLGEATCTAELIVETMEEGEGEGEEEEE", "chain of UniProt P52333 (whole entry, looked up)": "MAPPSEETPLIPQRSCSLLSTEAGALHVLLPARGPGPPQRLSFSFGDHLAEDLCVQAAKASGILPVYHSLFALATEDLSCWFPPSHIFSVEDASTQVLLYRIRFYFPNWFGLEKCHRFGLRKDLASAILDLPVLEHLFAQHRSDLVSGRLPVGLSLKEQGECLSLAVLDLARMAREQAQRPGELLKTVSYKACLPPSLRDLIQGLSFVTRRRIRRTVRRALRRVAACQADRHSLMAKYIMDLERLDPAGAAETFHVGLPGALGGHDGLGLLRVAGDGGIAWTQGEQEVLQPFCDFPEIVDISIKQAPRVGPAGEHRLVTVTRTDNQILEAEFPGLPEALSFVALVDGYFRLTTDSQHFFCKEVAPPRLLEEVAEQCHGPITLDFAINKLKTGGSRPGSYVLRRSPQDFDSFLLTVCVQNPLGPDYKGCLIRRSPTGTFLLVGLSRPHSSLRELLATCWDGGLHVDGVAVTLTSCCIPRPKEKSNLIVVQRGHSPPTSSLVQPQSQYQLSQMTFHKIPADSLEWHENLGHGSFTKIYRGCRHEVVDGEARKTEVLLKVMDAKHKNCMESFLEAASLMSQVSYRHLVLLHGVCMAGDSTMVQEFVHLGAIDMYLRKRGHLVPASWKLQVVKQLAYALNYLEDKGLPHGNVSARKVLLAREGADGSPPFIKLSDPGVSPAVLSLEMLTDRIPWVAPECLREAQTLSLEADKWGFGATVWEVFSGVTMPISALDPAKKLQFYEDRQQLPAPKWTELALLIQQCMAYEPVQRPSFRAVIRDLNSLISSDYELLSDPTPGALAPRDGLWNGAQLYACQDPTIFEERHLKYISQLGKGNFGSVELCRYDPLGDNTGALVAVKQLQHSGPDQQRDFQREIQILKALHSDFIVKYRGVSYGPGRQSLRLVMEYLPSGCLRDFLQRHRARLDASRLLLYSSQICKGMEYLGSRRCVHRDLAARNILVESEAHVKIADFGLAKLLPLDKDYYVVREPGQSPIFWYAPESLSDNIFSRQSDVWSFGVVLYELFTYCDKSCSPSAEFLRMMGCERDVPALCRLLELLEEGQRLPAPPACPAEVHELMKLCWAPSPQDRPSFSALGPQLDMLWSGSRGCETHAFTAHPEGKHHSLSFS", "chain of UniProt P36507 (whole entry, looked up)": "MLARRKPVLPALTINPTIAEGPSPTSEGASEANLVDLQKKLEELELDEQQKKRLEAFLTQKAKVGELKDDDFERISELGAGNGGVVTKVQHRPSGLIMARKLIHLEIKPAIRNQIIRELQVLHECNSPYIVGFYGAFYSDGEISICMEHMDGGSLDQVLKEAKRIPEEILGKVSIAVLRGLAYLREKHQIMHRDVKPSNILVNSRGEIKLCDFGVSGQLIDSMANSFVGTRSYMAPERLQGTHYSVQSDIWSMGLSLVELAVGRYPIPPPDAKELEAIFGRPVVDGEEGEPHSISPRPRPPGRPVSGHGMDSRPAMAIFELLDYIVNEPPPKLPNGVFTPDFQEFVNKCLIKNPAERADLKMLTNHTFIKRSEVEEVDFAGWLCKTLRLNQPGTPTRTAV", "chain of UniProt P10398 (whole entry, looked up)": "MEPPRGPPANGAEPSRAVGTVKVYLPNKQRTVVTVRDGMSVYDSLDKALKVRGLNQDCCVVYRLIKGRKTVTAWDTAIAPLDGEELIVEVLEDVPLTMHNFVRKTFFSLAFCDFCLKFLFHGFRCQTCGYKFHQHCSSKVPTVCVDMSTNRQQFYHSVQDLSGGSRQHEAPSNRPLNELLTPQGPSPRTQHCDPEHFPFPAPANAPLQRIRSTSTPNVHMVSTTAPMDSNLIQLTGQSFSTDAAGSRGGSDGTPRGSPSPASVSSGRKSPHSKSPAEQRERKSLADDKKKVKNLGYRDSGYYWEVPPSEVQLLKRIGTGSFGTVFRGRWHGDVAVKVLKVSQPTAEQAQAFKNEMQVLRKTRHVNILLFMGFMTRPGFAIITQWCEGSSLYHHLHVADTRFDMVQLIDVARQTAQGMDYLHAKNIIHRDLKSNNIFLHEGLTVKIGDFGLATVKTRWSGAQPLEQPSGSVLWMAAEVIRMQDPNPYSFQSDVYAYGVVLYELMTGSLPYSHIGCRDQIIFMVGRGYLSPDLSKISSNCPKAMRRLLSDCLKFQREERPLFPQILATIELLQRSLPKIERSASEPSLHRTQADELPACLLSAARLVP"}
{"data": "Set 1", "Compound": "O=C1Cc2c([nH]c3ccc([N+](=O)[O-])cc23)-c2ccccc2N1", "read-out": "enzyme activity", "action": "inhibitor", "concentration": "0.5 µM", "relative to": "control"}
{"target": "Tyrosine-protein kinase Lck (LCK, Homo sapiens, UniProt P06239)", "remaining activity": "81.2%"}
{"target": "Tyrosine-protein kinase Mer (MERTK, Homo sapiens, UniProt Q12866)", "remaining activity": "83.1%"}
{"target": "Ephrin type-A receptor 3 (EPHA3, Homo sapiens, UniProt P29320)", "remaining activity": "97.8%"}
{"target": "Ribosomal protein S6 kinase alpha-2 (RPS6KA2, Homo sapiens, UniProt Q15349)", "remaining activity": "62%"}
{"target": "Tyrosine-protein kinase JAK3 (JAK3, Homo sapiens, UniProt P52333)", "remaining activity": "99.7%"}
{"target": "Casein kinase I isoform gamma-2 (CSNK1G2, Homo sapiens, UniProt P78368)", "remaining activity": "91.7%"}
{"target": "Serine/threonine-protein kinase TBK1 (TBK1, Homo sapiens, UniProt Q9UHD2)", "remaining activity": "82.4%"}
{"target": "Serine/threonine-protein kinase A-Raf (ARAF, Homo sapiens, UniProt P10398)", "remaining activity": "96.2%"}
{"target": "Serine/threonine-protein kinase Nek1 (NEK1, Homo sapiens, UniProt Q96PY6)", "remaining activity": "105%"}
{"target": "Mitogen-activated protein kinase kinase kinase 5 (MAP3K5, Homo sapiens, UniProt Q99683)", "remaining activity": "101%"}
{"target": "Dual specificity mitogen-activated protein kinase kinase 2 (MAP2K2, Homo sapiens, UniProt P36507)", "remaining activity": "92.5%"}
{"target": "Serine/threonine-protein kinase Nek6 (NEK6, Homo sapiens, UniProt Q9HC98)", "remaining activity": "97.1%"}
{"target": "Activin receptor type-1B (ACVR1B, Homo sapiens, UniProt P36896)", "remaining activity": "109%"}
{"target": "Wee1-like protein kinase (WEE1, Homo sapiens, UniProt P30291)", "remaining activity": "98.2%"}
{"data": "Set 2", "host": "mouse", "medium": "microsomes or S9", "concentration": "2 µM", "time": "0.5 h"}
{"SMILES": "CN(C)CCCOc1ccc(CN2CCC(NC(=O)c3ccc(Br)o3)CC2)cc1", "remaining compound": "76.1%"}
{"SMILES": "c1ccc(Nc2ccc(Oc3ncnc4sccc34)cc2)cc1", "remaining compound": "0.831%"}
{"SMILES": "O=S(=O)(Nc1cc(F)cc(F)c1)c1c[nH]c2ncccc12", "remaining compound": "45.8%"}
{"SMILES": "Cc1ccc(-n2ncc3c(C(C)C)nn(CC(=O)NC(C)(C)C)c(=O)c32)cc1C", "remaining compound": "0.0461%"}
{"SMILES": "CN(C)c1noc(C2CCCN(c3nccnc3C#N)C2)n1 (centres unmarked)", "remaining compound": "56.5%"}
{"data": "Set 3", "Structure (SMILES)": "COc1cc(-c2cn(C3CCc4ccccc4N(CC(F)(F)F)C3=O)nn2)ccc1-n1ccc(C)n1 (centres unmarked)", "technique": "competition with immobilised ligand", "concentration": "1 µM"}
{"target": "Serine/threonine-protein kinase tousled-like 2 (TLK2, Homo sapiens, UniProt Q86UE8)", "test": "cell-free assay", "remaining binding [%]": 97}
{"target": "Myosin light chain kinase, smooth muscle (MYLK, Homo sapiens, UniProt Q15746)", "test": "binding", "remaining binding [%]": 80}
{"target": "Phosphatidylinositol 4-phosphate 5-kinase type-1 gamma (PIP5K1C, Homo sapiens, UniProt O60331)", "test": "cell-free assay", "remaining binding [%]": 100}
{"data": "Set 4", "cell line": "mouse MPNST tumor cells", "technique": "high-content nuclear imaging", "measured": "cell number", "concentration": "10 µM", "time": "12 h", "setting": "mean of 2 replicates", "relative to": "plate mean", "reading": "higher = more cells"}
{"Compound": "CCNC(=O)CCC/C=C\\C[C@@H]1[C@@H](/C=C/[C@@H](O)CCc2ccccc2)[C@H](O)C[C@@H]1O", "nuclei count": "1.47 z-score"}
{"Compound": "CCN1CCC[C@H]1CNC(=O)c1c(O)c(Cl)cc(Cl)c1OC", "nuclei count": "-0.825 z-score and -1.01 z-score"}
{"Compound": "O=c1onc2cnc3ccccc3n12", "nuclei count": "0.922 z-score"}
{"Compound": "COc1c(O[C@@H]2O[C@H](CO)[C@@H](O)[C@H](O)[C@H]2O)cc2c(c1OC)-c1ccc(SC)c(=O)cc1[C@@H](NC(C)=O)CC2", "nuclei count": "-1.3 z-score"}
{"data": "Set 5", "cell line": "HaCaT", "concentration": "100 µM", "time": "60 h"}
{"Structure (SMILES)": "O=C(O)CN(CCN(CC(=O)O)CC(=O)O)CC(=O)O", "viability": "146%"}
{"Structure (SMILES)": "NC[C@H]1O[C@H](O[C@H]2[C@H](O)[C@@H](O[C@H]3O[C@H](CO)[C@@H](O)[C@H](N)[C@H]3O)[C@H](N)C[C@@H]2N)[C@H](O)[C@@H](O)[C@@H]1O", "viability": "148%"}
{"Structure (SMILES)": "O=C1CN2Cc3c(ccc(Cl)c3Cl)N=C2N1", "viability": "131%"}
{"note": "Repeated from above (set 1):"}
{"target": "Mitogen-activated protein kinase kinase kinase 5 (MAP3K5, Homo sapiens, UniProt Q99683)", "remaining activity": "101%"}
{"target": "Dual specificity mitogen-activated protein kinase kinase 2 (MAP2K2, Homo sapiens, UniProt P36507)", "remaining activity": "92.5%"}
{"target": "Serine/threonine-protein kinase Nek6 (NEK6, Homo sapiens, UniProt Q9HC98)", "remaining activity": "97.1%"}
